Results gathered from unrelated publications.
Lines come from different studies, so protocols differ. Several values in a cell are separate wells, animals, samples, runs or records. Numbers after ± are the reported error.

SMILES	cell line	test	test system	setting	scale	endpoint	value
C=C1C(=O)OC2C1CCC(C)(O)C13C=CC(C)(C21)C1(C3)C(=O)CC2(C(C)C)CC21 (stereo not shown)	AML12 mouse hepatocytes	lipid accumulation, Nile Red staining		maximum safe concentration, 24 h, with: palmitic acid/oleic acid		maximum inhibition	22.6 ± 3.21%
CN1CCN(C(=O)c2ccc(-c3cc4c(N5CCC[C@H](C(=O)NCc6ccc(OC(F)(F)F)cc6)C5)ncnc4[nH]3)cc2)CC1	KARPAS-299	cell growth or viability, MTT		1 µg/mL, 72 h		inhibition	80%
Cc1ccncc1.[Cl-].[Cl-].[Ru+2].c1cc(-c2ccc3cccnc3n2)nc(-c2ccc3cccnc3n2)c1.c1ccc2cc3nc4c5cccnc5c5ncccc5c4nc3cc2c1	SK-MEL-28	cell viability		visible light 400-700 nm, 100 J/cm2		EC50	333 ± 33 nM
CN1CCCNC(=O)c2cccc(c2)C(=O)NCCCN(C)CCCNc2cccc3c2C(=O)c2cccc(c2C3=O)NCCC1	SAS	RNA-Seq, item: BUD31 mRNA		1 µM, 6 h	baseline: untreated cells	log2 fold change	-0.414
Nc1cc2cccnc2c2ncccc12.[Cl-].[Cl-].[Ru+2].c1cnc2c(c1)ccc1cccnc12.c1cnc2c(c1)ccc1cccnc12	PC-3			10 µM, 30 min irradiation	baseline: untreated irradiated cells	trypsin resistance	140 ± 5.1%
O=C(C[Se]C(=O)c1ccc2ccccc2n1)Nc1cccc(C(F)(F)F)c1	NCI60 CNS cancer panel	five-dose screen				GI50	1840 nM
CCCCN1C(=O)c2cccc3c(NCCCCCCCCCCN4CCOCC4)ccc(c23)C1=O	BHK-21	confocal lambda scanning				emission maximum in ER	537 nm
COc1c(C)c(OC(=O)c2ccccc2)c(C)c(OC(=O)c2ccccc2)c1C(=O)/C=C/c1ccccc1	FaDu	SRB			baseline: normal over FaDu IC50	selectivity index	1.03
CCN(CC)CC(=O)Nc1cccc(-n2cc(-c3ccc4ccc(-c5cn(-c6cccc(NC(=O)CN(CC)CC)c6)nn5)cc4c3)nn2)c1	RCC4	PCR angiogenesis array, item: JAG1		5 x IC50, 6 h, normoxia	baseline: untreated	fold regulation	1.11
C=C1C(=O)OC2C1CCC(C)(O)C13C=CC(C)(C21)C1(C3)C(=O)OC2C3C(C)C(=O)CC3C(=C)CC(OC(C)=O)C21 (stereo not shown)	AML12 mouse hepatocytes	lipid accumulation, Nile Red staining		maximum safe concentration, 24 h, with: palmitic acid/oleic acid		maximum inhibition	85.3 ± 6.21%
O=C(C[Se]C(=O)c1cc2ccccc2o1)Nc1cccc(C(F)(F)F)c1	NCI60 CNS cancer panel	five-dose screen				GI50	1700 nM
COc1ccc(N(CCO)S(=O)(=O)C2CC3OC2C(c2ccc(O)cc2)=C3c2ccc(O)cc2)cc1 (stereo not shown)	MCF7 3xERE-luc, steroid-deprived	ERE luciferase reporter, agonist			baseline: vehicle	Emax	3.7%
CNS(=O)(=O)Nc1nccc(Cc2c(C)c3ccc(Oc4ncccc4F)cc3oc2=O)c1F	SK-N-DZ	cell viability, CellTiter-Glo		7 days		IC50	> 1000 nM
CC(C)c1ccc(N(C)c2ccc3c(c2)OCC[C@H]3CNc2cnccc2C(=O)O)cc1	NCI-H2291	cell growth or viability, ATP luminescence		7 days		IC50	8.4 nM
COc1cc(N2CCOCC2)ccc1Nc1ncc(Cl)c(Nc2ccccc2NS(C)(=O)=O)n1	PC-9 del19/T790M/C797S	inhibitor, western blot, item: EGFR, AKT, ERK		concentration not given, 5 h		phosphorylation	inhibited
CCN(CC)CCNC(=S)Nc1ccc2nc(N3CCN(CC)CC3)cc(C)c2c1	U2OS SSA-GFP reporter	single-strand annealing, flow cytometry		30 µM		GFP-positive cells	2.43%
C[C@@H]1CN(c2cc(=O)n(C)c3ccc(C#N)nc23)[C@@H](C)CN1Cc1ccc(S(=O)(=O)n2cnc(C3CC3)n2)cc1	CT2A-luc			concentration not given, without immune cells	baseline: DMSO	cell proliferation	no effect
CCCCCCCCCCCC(=O)N[C@@H](CO)C[C@@H](O)c1cccc(CCCCCC)c1	HeLa	CERT activity, HPLC-MS/MS lipidomics, item: ceramide 16		1 µM, 24 h, not cell-number normalised		ceramide level	29100 pmol/sample and 33100 pmol/sample and 29700 pmol/sample
COc1ccccc1-c1ccncc1C(=O)Nc1nnc(OCc2ccc(Cl)cc2)s1	MDA-MB-436 BRCA1-mutant			1.5 µM		colony count	13 and 12 and 10 and 9 and 15

SMILES	cell line	test	test system	setting	scale	endpoint	value
COc1cc([C@@H]2O[C@@H](c3cc(OC)c(O[C@@H]4O[C@H](CO)[C@@H](O)[C@H](O)[C@H]4O)c(OC)c3)[C@H](CO)[C@H]2CO)cc(OC)c1O	3T3-L1	lipid accumulation, inhibitor, Oil Red O staining		maturation stage		lowest effective concentration	20 µM
Cc1cc(NC(=O)c2cccc(N)c2)ccc1Nc1nccc(-c2cccnc2)n1	HEK293 AP1 reporter cells	AP-1 reporter gene, inhibitor		3 µM, 6 h, unit not given, with: PMA	baseline: PMA alone	reporter activity	0.315
CCNc1cc2c(cc1C)C1(c3cc(C)c(NCC)cc3O2)c2ccccc2C(=O)N1N=Cc1c[c-]c(-c2ccccn2)cc1.Cc1c(C)c(-c2ccc(-c3ccccc3)cc2)[c-](C)c1C.[Cl-].[Ir+3]	A549	mitochondrial membrane potential loss, JC-1 flow cytometry		2.0 x IC50, 24 h		JC-1 monomer cells	3.86 ± 0.27%
[Cl-].[Cl-].[Ru+2].c1ccc(-c2ccccn2)nc1.c1ccc(-c2ccccn2)nc1.c1ccc2cc3nc4c5cccnc5c5ncccc5c4nc3cc2c1	SK-MEL-28	cell growth, SRB		dark, normoxia		TGI	57.3 µM
COc1ccc(NC(=O)c2ccc3[nH]c(-c4ccc(N(C)C)cc4)nc3c2)cn1	HCT116	IncuCyte		concentration not given, 0 h		dead cell to confluence ratio	0.55 and 1.04 and 1.51
COC(=O)c1cc(NC2=NC(=O)C(=Cc3ccc(C)cc3)S2)ccc1OC(C)=O	MCF7	GC-MS, item: L-Aspartic acid		1 µM	baseline: DMSO	metabolite level	0.27 fold change
COc1cc(N2CCN(C(=O)C3CCCN3)CC2)ccc1Nc1ncc(Cl)c(Nc2ccccc2P(C)(C)=O)n1 (stereo not shown)	Ba/F3 EML4-ALK	flow cytometry		concentration not given, 6 h		early apoptotic cells	4.64% and 4.41% and 4.53%
C=CC(=O)N1[C@H](c2ccc3c(c2)OCO3)c2[nH]c3ccccc3c2C[C@@H]1C(=O)NC1CC1	rat DRG neurons			0.04115 µM, 48 h, with: vincristine 40 nM		neuron degeneration	77.2% and 72.7%
Cc1cc(Cl)cc(-c2ccnc3cc(CN4C(=O)C5C(C4=O)C5(C)C)sc23)c1C[C@@H]1CNCCO1 (stereo partly shown)	CHP-212 parental	PI flow cytometry		1 µM, 24 h		S phase cells	12.3%
COC(=O)c1cc(NC2=NC(=O)C(=Cc3ccc(N(C)C)cc3)S2)ccc1OC(C)=O	MCF7	GC-MS, item: Myristic acid		1 µM	baseline: DMSO	metabolite level	-0.76 fold change
CO[C@@H]1[C@@H](OC(N)=O)[C@@H](O)[C@H](Oc2ccc3c(O)c(NC(=O)c4ccc(O)c(CC=C(C)C)c4)c(=O)oc3c2C)OC1(C)C	HCT-116 BRCA2-/-			50 µM, replicate 1		colony count	27
CCC(CC)n1c(Cc2ccco2)nc2cc(C(=O)N[C@@H](CC(=O)O)c3ccccc3)ccc21	H9c2			concentration not given, 48 h, with: ISO and MCM		LDH release	decreased
Cn1ncc2cc(-c3cncc(Cl)c3N3CCC4(CCNC4=O)CC3)ccc21	LS174T	gene expression, microarray, item: PPFIA4 mRNA		concentration not given, 4 h	baseline: untreated cells	log2 fold change	1.98
Cc1cc(NC2CCN(C)CC2)ccc1-c1cc2c(N3CCC[C@H](C(=O)NCc4ccc(OC(F)(F)F)cc4)C3)ncnc2[nH]1	KARPAS-299	cell growth or viability, MTT		0.04 µg/mL, 72 h		inhibition	70.9%
CCOc1cncc(-c2ccc(NC(=O)C3(c4ccnc(NS(=O)(=O)C5CC5)n4)CCOCC3)nc2)n1	lung cancer	cell viability, CellTiter-Glo	DMSO 0.1%	72 h, line code 1072		IC50	10000 nM
Cc1ncsc1-c1ccc(C(C)NC(=O)C2CC(O)CN2C(=O)C(NC(=O)CCCCCCCCCCN2CCCC(Nc3ncc(Cl)c(Nc4ccccc4S(=O)(=O)C(C)C)n3)C2)C(C)(C)C)cc1 (stereo not shown)	22Rv1	RNA-seq, item: ZNF133 mRNA		concentration not given	baseline: DMSO	log2 fold change	-1.62
Cc1ccc(-n2cc(CSc3nc4ccccc4n3Cc3cn(-c4ccc(C)cc4)nn3)nn2)cc1	MDA-MB-231	MTT		250 ppm		viability	7.39%
C=C1C(=O)OC2C1CCC(C)(O)C13C=CC(C)(C21)C1(C3)C(=O)OC2C3C(C)=CCC3C(=C)CC(OC(C)=O)C21 (stereo not shown)	AML12 mouse hepatocytes	lipid accumulation, Nile Red staining		maximum safe concentration, 24 h, with: palmitic acid/oleic acid		maximum inhibition	31.6 ± 4.59%

Excerpt of the above:
SMILES	cell line	test	test system	setting	scale	endpoint	value
CCCCCCCCCCCC(=O)N[C@@H](CO)C[C@@H](O)c1cccc(CCCCCC)c1	HeLa	CERT activity, HPLC-MS/MS lipidomics, item: ceramide 16		1 µM, 24 h, not cell-number normalised		ceramide level	29100 pmol/sample and 33100 pmol/sample and 29700 pmol/sample
COc1cc([C@@H]2O[C@@H](c3cc(OC)c(O[C@@H]4O[C@H](CO)[C@@H](O)[C@H](O)[C@H]4O)c(OC)c3)[C@H](CO)[C@H]2CO)cc(OC)c1O	3T3-L1	lipid accumulation, inhibitor, Oil Red O staining		maturation stage		lowest effective concentration	20 µM
COC(=O)c1cc(NC2=NC(=O)C(=Cc3ccc(C)cc3)S2)ccc1OC(C)=O	MCF7	GC-MS, item: L-Aspartic acid		1 µM	baseline: DMSO	metabolite level	0.27 fold change
C[C@@H]1CN(c2cc(=O)n(C)c3ccc(C#N)nc23)[C@@H](C)CN1Cc1ccc(S(=O)(=O)n2cnc(C3CC3)n2)cc1	CT2A-luc			concentration not given, without immune cells	baseline: DMSO	cell proliferation	no effect
CCCCN1C(=O)c2cccc3c(NCCCCCCCCCCN4CCOCC4)ccc(c23)C1=O	BHK-21	confocal lambda scanning				emission maximum in ER	537 nm
CCN(CC)CC(=O)Nc1cccc(-n2cc(-c3ccc4ccc(-c5cn(-c6cccc(NC(=O)CN(CC)CC)c6)nn5)cc4c3)nn2)c1	RCC4	PCR angiogenesis array, item: JAG1		5 x IC50, 6 h, normoxia	baseline: untreated	fold regulation	1.11
